Measured values of several laboratories.
Each numbered part is a random draw from the data of one study; scales do not carry over between parts.

Study 1
Target: Ras GTPase-activating protein-binding protein 1, C-terminal RGG region (G3BP1, Homo sapiens, UniProt Q13283)
UniProt Q13283, sequence (whole entry, looked up): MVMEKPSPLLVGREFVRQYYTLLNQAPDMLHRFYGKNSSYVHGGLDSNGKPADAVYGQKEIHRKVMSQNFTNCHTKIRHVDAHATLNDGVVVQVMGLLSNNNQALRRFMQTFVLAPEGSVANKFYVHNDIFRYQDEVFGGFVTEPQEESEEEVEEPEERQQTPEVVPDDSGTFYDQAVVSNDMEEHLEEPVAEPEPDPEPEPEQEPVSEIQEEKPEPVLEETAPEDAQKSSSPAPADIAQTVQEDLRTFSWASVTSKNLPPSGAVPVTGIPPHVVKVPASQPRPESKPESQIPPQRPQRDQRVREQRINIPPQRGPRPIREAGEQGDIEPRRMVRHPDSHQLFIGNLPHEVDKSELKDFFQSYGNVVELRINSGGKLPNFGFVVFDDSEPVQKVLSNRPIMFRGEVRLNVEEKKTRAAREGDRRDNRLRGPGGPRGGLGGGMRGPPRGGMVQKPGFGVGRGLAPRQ
Method: RNA Bind-n-Seq
Molecule type: RNA
Medium: in vitro
Tested at: 1 µM
Setting: whole 134-nt RNA, ends assumed
With: 150 mM KCl
Reference: input library
Direction: higher = stronger binding
All sequences stand within: GGGAGUUCUACAGUCCGACGAUC … UGGAAUUCUCGGGUGUCAAGG
Oligonucleotide | log2 enrichment
UCAAGUCCUGUGCUACACAUCGUAUGUACCGAAUCGGGGUUGGGUUGGGUUGGGAAAGUAUUAUGUUACGCCGUUCGGAUCUGCACUUCC | 1.91
CUGUGCUACACAUCGUAUGUACCGAAUCGGGAAAAAAAGGGUUUUUUUGGGAAAAAAAGGGAAAGUAUUAUGUUACGCCGUUCGGAUCUG | -2.14
UCCUGUGCUACACAUCGUAUGUACCGAAUCGGGGUUUUUGGGGAGGGGUUUUUUUGGGGAAAGUAUUAUGUUACGCCGUUCGGAUCUGCA | 2.15
CAAGUCCUGUGCUACACAUCGUAUGUACCGAAUCGGUUUGGAAAAAGGAAAAAGGAAAGUAUUAUGUUACGCCGUUCGGAUCUGCACUUC | -1.75
UCAAGUCCUGUGCUACACAUCGUAUGUACCGAAUCGGGGCCGGGGCCGGGCCGGGAAAGUAUUAUGUUACGCCGUUCGGAUCUGCACUUC | -0.815
UGGGAGGUGGAUUUCGUUUAUUUUUUUAGCUCAUUUCCAGGGGUGGGAAUUUUUUUUUAAUAUGUGUCAUGAAUAAAGUUGUUUUUGAAA | 2.81
CUCAAGUCCUGUGCUACACAUCGUAUGUACCGAAUCGGGGUGGGUGGGGUGGGGAAAGUAUUAUGUUACGCCGUUCGGAUCUGCACUUCC | 1.39
CUGUGCUACACAUCGUAUGUACCGAAUCGGGAAAAAAAGGGAAAAAAAGGGUUUUUUUGGGAAAGUAUUAUGUUACGCCGUUCGGAUCUG | -1.76
AAGUCCUGUGCUACACAUCGUAUGUACCGAAUCAAACCCAAACCCCCAAAUUUAAAAAAGUAUUAUGUUACGCCGUUCGGAUCUGCACUU | -0.884
ACCAUGCAGGUGGGCAUCUUUGGGAAGUGGGGCAAGGGGGGGAUAGGGAGGGGGGUAACACUUUGGGAACAGGUGGUCCCAGUUCGUUUC | 1.63
CUGUGCUACACAUCGUAUGUACCGAAUCGGGGUUUUUUUGGGUUUUUUUGGGUUUUUUUGGGAAAGUAUUAUGUUACGCCGUUCGGAUCU | -1.3
UAACUUUAGAGGAGGAUCUGUUGGAUAUGGCAGUGGACGUGGAUUUGGGGAUGGCUAUAAUGGGUAUGGAGGAGGACCUGGAGGUGGCAA | -0.505
UUCUCUCAUUUCUUCUGAAAUACAGGGCAAAUUGGAUCAAGGCAGUUCAGAUGUGUAGCAAACCCAGAGAAUUUGCAUUGGCUUUAGCCA | 2.26
GUCCUGUGCUACACAUCGUAUGUACCGAAUCGGCCCCCGGGGCCCCCGGGGCCCCCGGGAAAGUAUUAUGUUACGCCGUUCGGAUCUGCA | -1.68

Study 2
Target: RING finger protein unkempt homolog, zinc fingers 1-6, GST-SBP tag (UNK, Homo sapiens, UniProt Q9C0B0, residues 30-357)
UniProt Q9C0B0, sequence (30-357, looked up): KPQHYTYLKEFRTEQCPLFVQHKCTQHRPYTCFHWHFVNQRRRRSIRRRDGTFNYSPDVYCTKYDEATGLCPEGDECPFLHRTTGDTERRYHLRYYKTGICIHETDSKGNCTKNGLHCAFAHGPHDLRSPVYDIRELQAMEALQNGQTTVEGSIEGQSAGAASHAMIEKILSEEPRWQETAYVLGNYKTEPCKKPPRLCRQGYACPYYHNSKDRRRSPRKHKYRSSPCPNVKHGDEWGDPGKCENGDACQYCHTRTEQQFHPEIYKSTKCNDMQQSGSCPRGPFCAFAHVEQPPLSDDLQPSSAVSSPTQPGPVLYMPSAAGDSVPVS
Method: RNA Bind-n-Seq
Molecule type: RNA
Medium: in vitro
Tested at: not given
Setting: RNA with constant flanks, human-mouse chimeric sites, ends assumed
Reference: input RNA pool
Direction: higher = stronger binding
All sequences stand within: GGGAGUUCUACAGUCCGACGAUC … CAACAGAGGAUUGAGCAUCA
Oligonucleotide | bound/input enrichment
UGUAACUUAUCUGUAAAAAAGGUUUCUCCCUACUGUCCAAAAAAUAUGCAUGUAUAGUAAUUAGGACUUCAUUCCUCCAUGUUUUCUUCCCUUAUCUUACUGUCAUUGUCCUUAAACCUU | 0.762 ratio
ACACAAUAUGAGACCAACAGCUUGGACUUCAAAGUUGGGGCAGAUGGGACAGUCUUCGCCACCCGGGAGCUGCAGGUCCCCUCCGAGCAGGUGGCCUUCACGGUGACUGCAUGGGACAGC | 0.193 ratio
UCGGAUGAGGUGCUGGGUCACUUUCCGUAUCCAGAUCCUUCACAGUGGACAGAUGAAGAACUGGGAAUCCCUCCUGAUGACGAGGACUGACACUGUAAACUCUCUGGACGAGUAGGAGCA | 0.651 ratio
UAUAUCACCAAUGUCCUACAAAAUCCUGACUUGGCUCUGAGAAUGGCUGUGCGGAACAACUUAGCCGGUGCUGAAGAACUCUUUGCCCGGAAAUUUAAUGCUCUCUUUGCCCAGGGAAAC | 0.356 ratio
GUGCCCUUCUCGCUGCUGCGGAGCCCGAGCUGGGAACCAUUCCGGGACGACUGGUACGCACACAGCCGCCUCUUCGACCAGGCCUUCGGGGUGCCCCGGUUGCCCGAUGAGUGGUCGCAG | 0.101 ratio
CGCUGGCCCAAGCUGAUGGACUCUGAUGGCCUCCAUCUCUCAGGCACGUGUGCCUUCUCUUAGUCCCUUCUGGGUUGAUGUUAUGAAUCUCAGUACUGUGGUUUGAAAGCAGUUAUGUUG | 0.731 ratio
AUUGUUGAAGCGAAUCCACUUUUAGAAGCAUUUGGAAAUGCAAAGACUGUUCGCAACAAUAAUAGCAGUCGAUUUGGGAAAUUUGUAGAAAUUCAUUUCAAUGAAAAGAGUUCGGUUGUU | 0.356 ratio
AUCCCAAUUAUGGACACCGGUGAAAACCCAGAGGUGCCCUUCCCCCGGGACAUGAUUGACUUAGAGGCCAAUUUUGAGAAGAUUGAAAAUGAACUGAAGGAAAUCAACACAAACCAGGAA | 0.168 ratio
UUCAAAGGCUGUGUUAUCUGUGUCAUUUCAUAAGUAACUCUGGGGGAGGGAAAUUCUGUUCUUUUGUUUAAUUUUCCCCCAAAUGAAACCAACAUGCGUGUUGAAGAACUGAGAAAAAAU | 0.165 ratio
GCUCUUGGGAAUGUAAUCAGCGCCUUGGGGGACAAGAGCAAGAGAGCCACCCAUGUCCCUUACAGAGAUUCCAAGCUGACAAGACUCCUACAGGAUUCCCUUGGGGGUAACAGCCAAACC | 0.128 ratio
UUGCCUGAGAACGAGGAUGAGCUGGAGAGCACCAACAGGCGCUACACCAAGAGGGACUGCAGCACUUUCCUCAGAACUAGCGAGACGGGCAUCGUGGACCAGGUCAUGGUCACUCUCAAC | 0.0673 ratio

Study 3
Target: RNA binding protein fox-1 homolog 2, RRM domain, GST-SBP tag (RBFOX2, Homo sapiens, UniProt O43251-10, residues 100-194)
Method: RNA Bind-n-Seq
Molecule type: RNA
Medium: in vitro
Tested at: 365 nM
Setting: natural RNA segment, single round, ends assumed
Reference: no-protein control
Direction: higher = stronger binding
All sequences stand within: GGGAGUUCUACAGUCCGACGAUC … UGGAAUUCUCGGGUGCCAA
Construct (chain): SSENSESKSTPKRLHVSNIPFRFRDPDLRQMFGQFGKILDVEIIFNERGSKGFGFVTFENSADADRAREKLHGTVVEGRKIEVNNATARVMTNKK
Oligonucleotide | RBNS enrichment (R)
ACAGCCAGAAGCCAAAACUAUUCCCAGAAAGUUUUGAAUGCAAAACUUGUAGAUUCCUGAAUUUAUUCCAUACAUAAUUAUUUCCUUAAGUUAUUUAAUUAUUAAAGGUG | 0.59
ACCUCAUGGGAUGGGCAAUGCACACACUGGCCCUUAUUUUUCCCUUUCAAAUAAAACACCAGUCAGGUACCUUUAUCCCAGUCUUAACUGUCCCAAAUCUGGAAGGUCCA | 0.715
ACUGCACGGCUGCUGAUUGGUCUUCUAUCUCCUGAAGUUUACUCAUGUUCUUAAAACUCCUGGUGACUUUGUUCUUUUGCCAACGUAGAAAGCACAGUGGACGGGUUGUG | 0.735
CAAAGGUUUAGAACACAUUAUUUUCAAAGACUAAAUCUAAAACCCAGAGUAAACAUCAAUGCUCAGAGUUAGCAUAAUUUGGAGCUAUUCAGGAAUUGCAGAGAAAUGCA | 2.52
GGUUGUAUUCAGUAAAAAAGAAUAGUAAAUAUAAGGUCACUGAGAUUCUAAGUAAGAUAGUAAAUCUAAGGUCACUGAGCCAAAUCCUUUUCAAUAGGCAUAUAUUAACA | 0.424
UCAAGUCUGCGAGGCUAGGCACUUCCUCUCCCACGAAGGCCAGACAAGAAGGCCCAGCUAGAAGAACAUAUCCCACACACAGGCAACAGCUUUUGGGAUAGCCCCCGCUC | 0.287
UGCAGAUGUGAAAGCUAAGACCAUGAACCAUGUGAGAUUCCAAACCAAAUAAGCUUGCUGCCAUGGUCUAGGGUGAGGGUGCUGUCCUGUGCAAAUGUUAAGUUGGAUAU | 1
GGCCCAGUUUGGGCCAGUCCAUUUUUGGAGGUCACUCUUUCCCCCCUCAUCCCCUCACCUCCUUCUCUUUACCCCCUUCACGUACUUCCUUUCUUUCUUCCCUCUGUUAU | 1.17
GGAUGUGGCUGUAACCUGCUGGAUGGGACUCCAUAGCUCCUUCCCAGGACCCCUCAGCUCCCCGGCACUGCAGUCUGCAGAGUUCUCCUGGAGGCAGGGGCUGCUGCCUU | 0.638
GUAUCAAAGCAUAUAAAAUAUUUUCUAUGUAAGUAAAUUGCAUCUUUAUGCUAGUGAACAAAGUAGCAAUAAAUGUUCAUUUUUGGAUGGCAGUACACAUUGUUAACAAU | 0.312
UUUUCUCUCCUCCCCAGAGGCCCCAUGGGAUGCCGCGUGCUGUUGGGUUUGGGCUAAGAUCUAAGACCCAGCAGAUAGGAGACAGCAGGUACCACCCACACAGCACAGCU | 0.478
UUUUAACCUGUUAUUGUCCACUAAAGGUCUUAGAUGUCUGGCCAUGUGAGAAUGCAGUAAGGGGGCUGCCAGCUCUCUUCUCCCUCAGACCAUUGUCUCCCCGCUGAACU | 0.507

Study 4
Target: Interferon regulatory factor 5, full length, phosphomimetic (IRF5, Homo sapiens, UniProt Q13568-2, residues 1-514, K96S/S451D/S453D/S456D/S462D)
Method: protein-binding microarray
Molecule type: double-stranded DNA, one strand shown
Medium: in vitro
Tested at: 250 nM
Setting: 60-bp whole probe
With: salmon DNA 0.4 mg/ml
Reference: random background probes
Direction: higher = stronger binding
All sequences stand within: GCCTAGCAC … GTCTTGATTCGCTTGACGCTGCTG
Oligonucleotide | log fluorescence
CCCAGACTTGATTTTGGTCTGTGCTAG | 0.187 z-score
GACCGTCTCGGTTTCGGGACGTGCTAG | 3.51 z-score
GGTGGTGATGGTGAGTAAGAGTGCTAG | -0.592 z-score
TTAGAATTGAGTATCGATTAGTGCTAG | 7.13 z-score
TTAGATAGCGGGTTTCGATTAGTGCTA | 6.54 z-score
GGAGTGGGAAGCTTCGCTCCGTGCTAG | -0.539 z-score
GACAGTATCGGGACTGGGGACGTGCTA | 2.47 z-score
TACGGTTTCGGTTCCGGGACGTGCTAG | 9.73 z-score
GAAGATCTCAGTCTCGAGACGTGCTAG | 0.16 z-score
TACTCTCTCCATGTGTTTAAGTGCTAG | 0.502 z-score
CTCTTTCTCTGCTACCCTCTGGTGCTA | 1.5 z-score
TCAGATCTCAGACTGTGACTGTGCTAG | -0.417 z-score
GACGGTCTCGGGATCGGGACGTGCTAG | -0.255 z-score
TTAGGTATCGACGTTCGGTTAGTGCTA | 2.44 z-score
GGGATGGTGGGGCTCCTCCTGTGCTAG | -0.486 z-score
GAGGAACTGAGTCTCGAGACGTGCTAG | -0.475 z-score
TATTTTTACATTATTACCTCGTGCTAG | 1.14 z-score
TTAGATCTCGGTCTCGATTAGTGCTAG | 0.654 z-score

A few entries again (study 1):
Oligonucleotide | log2 enrichment
UCAAGUCCUGUGCUACACAUCGUAUGUACCGAAUCGGGGUUGGGUUGGGUUGGGAAAGUAUUAUGUUACGCCGUUCGGAUCUGCACUUCC | 1.91
UCAAGUCCUGUGCUACACAUCGUAUGUACCGAAUCGGGGCCGGGGCCGGGCCGGGAAAGUAUUAUGUUACGCCGUUCGGAUCUGCACUUC | -0.815
CUGUGCUACACAUCGUAUGUACCGAAUCGGGGUUUUUUUGGGUUUUUUUGGGUUUUUUUGGGAAAGUAUUAUGUUACGCCGUUCGGAUCU | -1.3
CUCAAGUCCUGUGCUACACAUCGUAUGUACCGAAUCGGGGUGGGUGGGGUGGGGAAAGUAUUAUGUUACGCCGUUCGGAUCUGCACUUCC | 1.39
UAACUUUAGAGGAGGAUCUGUUGGAUAUGGCAGUGGACGUGGAUUUGGGGAUGGCUAUAAUGGGUAUGGAGGAGGACCUGGAGGUGGCAA | -0.505
UUCUCUCAUUUCUUCUGAAAUACAGGGCAAAUUGGAUCAAGGCAGUUCAGAUGUGUAGCAAACCCAGAGAAUUUGCAUUGGCUUUAGCCA | 2.26
